# Experimental data gathered from unrelated publications.
# Lines come from different studies, so protocols differ. Numbers after ± are the reported error.
# Sequence of UniProt Q96SW2 (whole entry, looked up): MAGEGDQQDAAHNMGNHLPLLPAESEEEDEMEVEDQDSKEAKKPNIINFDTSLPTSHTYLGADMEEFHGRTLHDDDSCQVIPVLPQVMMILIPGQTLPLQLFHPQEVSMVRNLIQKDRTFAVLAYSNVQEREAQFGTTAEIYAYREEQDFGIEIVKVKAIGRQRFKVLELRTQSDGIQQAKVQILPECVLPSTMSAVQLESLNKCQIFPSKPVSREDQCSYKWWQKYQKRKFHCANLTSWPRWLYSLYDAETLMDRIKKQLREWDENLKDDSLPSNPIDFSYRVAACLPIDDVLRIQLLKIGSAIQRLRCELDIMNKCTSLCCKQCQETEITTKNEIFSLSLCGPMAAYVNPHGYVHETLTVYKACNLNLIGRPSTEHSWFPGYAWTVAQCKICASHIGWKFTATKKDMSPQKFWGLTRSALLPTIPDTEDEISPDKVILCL
# Sequence of UniProt O66465 (whole entry, unmodified, looked up): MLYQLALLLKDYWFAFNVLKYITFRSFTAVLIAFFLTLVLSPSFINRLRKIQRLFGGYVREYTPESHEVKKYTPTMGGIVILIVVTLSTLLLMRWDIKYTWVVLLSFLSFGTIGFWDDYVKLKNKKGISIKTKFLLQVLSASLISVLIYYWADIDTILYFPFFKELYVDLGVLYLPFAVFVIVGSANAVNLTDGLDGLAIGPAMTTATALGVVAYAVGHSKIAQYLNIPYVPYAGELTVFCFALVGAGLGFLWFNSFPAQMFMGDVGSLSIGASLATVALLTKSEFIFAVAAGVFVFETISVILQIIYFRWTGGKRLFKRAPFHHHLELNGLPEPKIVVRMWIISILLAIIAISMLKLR
# Sequence of UniProt P28907 (whole entry, looked up): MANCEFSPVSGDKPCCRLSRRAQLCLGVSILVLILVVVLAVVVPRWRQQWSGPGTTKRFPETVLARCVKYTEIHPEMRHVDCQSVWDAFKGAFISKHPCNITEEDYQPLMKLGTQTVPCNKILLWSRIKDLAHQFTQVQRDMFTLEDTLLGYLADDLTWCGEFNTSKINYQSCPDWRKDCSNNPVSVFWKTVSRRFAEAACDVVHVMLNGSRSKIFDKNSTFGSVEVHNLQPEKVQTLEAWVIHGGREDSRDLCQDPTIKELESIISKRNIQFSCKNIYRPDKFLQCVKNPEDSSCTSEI
# Sequence of UniProt Q920B6 (whole entry, looked up): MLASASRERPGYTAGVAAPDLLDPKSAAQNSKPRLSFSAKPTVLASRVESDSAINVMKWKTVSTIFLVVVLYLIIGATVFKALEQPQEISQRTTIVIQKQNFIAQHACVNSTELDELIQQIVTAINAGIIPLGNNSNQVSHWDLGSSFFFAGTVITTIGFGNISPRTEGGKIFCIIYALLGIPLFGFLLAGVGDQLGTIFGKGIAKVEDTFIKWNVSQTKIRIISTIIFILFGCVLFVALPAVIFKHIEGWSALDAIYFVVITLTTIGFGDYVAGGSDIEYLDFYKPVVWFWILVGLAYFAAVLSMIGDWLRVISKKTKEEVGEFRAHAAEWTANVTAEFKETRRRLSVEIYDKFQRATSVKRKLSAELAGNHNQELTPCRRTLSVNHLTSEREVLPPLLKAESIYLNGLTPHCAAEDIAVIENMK
# Sequence of UniProt Q9NZC7 (whole entry, unmodified, looked up): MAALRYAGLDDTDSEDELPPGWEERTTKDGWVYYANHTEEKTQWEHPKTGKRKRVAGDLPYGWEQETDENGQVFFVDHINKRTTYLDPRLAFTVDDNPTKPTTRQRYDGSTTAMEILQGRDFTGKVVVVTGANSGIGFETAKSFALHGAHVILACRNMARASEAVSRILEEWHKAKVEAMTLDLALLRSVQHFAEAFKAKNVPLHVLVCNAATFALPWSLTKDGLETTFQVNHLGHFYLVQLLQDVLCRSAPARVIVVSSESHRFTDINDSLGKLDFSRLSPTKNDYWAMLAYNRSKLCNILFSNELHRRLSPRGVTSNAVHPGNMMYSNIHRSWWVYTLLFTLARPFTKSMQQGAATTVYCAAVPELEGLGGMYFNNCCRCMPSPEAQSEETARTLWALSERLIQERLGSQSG
# Sequence of UniProt O43526 (whole entry, looked up): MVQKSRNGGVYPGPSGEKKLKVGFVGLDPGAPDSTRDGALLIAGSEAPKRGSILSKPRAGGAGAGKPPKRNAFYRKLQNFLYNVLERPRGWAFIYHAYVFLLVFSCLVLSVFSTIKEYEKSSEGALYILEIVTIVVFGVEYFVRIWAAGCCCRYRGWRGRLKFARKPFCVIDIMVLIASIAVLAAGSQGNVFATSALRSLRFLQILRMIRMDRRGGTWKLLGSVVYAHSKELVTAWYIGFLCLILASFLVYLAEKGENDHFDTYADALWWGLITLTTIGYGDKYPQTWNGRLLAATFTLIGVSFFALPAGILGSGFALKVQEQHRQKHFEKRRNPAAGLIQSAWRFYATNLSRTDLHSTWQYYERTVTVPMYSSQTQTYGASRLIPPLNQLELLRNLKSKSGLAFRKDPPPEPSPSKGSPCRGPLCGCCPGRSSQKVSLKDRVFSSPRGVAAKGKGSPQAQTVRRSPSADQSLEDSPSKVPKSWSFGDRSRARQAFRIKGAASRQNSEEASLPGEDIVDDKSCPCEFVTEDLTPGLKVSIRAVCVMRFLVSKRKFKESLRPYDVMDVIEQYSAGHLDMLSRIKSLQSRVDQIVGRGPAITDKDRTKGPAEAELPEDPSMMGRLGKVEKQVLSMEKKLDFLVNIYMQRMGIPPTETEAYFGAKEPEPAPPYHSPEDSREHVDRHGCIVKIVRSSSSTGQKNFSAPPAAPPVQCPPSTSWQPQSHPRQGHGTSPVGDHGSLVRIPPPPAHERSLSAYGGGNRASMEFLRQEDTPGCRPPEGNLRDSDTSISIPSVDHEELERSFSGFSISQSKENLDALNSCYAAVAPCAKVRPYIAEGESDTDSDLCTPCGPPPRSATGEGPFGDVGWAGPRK
# Sequence of UniProt Q6W5P4 (whole entry, unmodified, looked up): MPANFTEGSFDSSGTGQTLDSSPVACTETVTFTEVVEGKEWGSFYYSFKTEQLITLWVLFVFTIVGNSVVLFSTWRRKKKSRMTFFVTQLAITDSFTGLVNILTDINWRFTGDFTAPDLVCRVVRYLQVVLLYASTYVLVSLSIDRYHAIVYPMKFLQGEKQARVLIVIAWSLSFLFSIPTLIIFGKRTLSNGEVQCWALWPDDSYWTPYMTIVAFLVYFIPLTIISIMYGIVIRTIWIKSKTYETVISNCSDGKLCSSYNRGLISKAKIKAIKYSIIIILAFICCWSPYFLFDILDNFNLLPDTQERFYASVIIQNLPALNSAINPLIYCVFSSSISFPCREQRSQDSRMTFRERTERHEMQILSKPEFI
# Sequence of UniProt P48729 (whole entry, looked up): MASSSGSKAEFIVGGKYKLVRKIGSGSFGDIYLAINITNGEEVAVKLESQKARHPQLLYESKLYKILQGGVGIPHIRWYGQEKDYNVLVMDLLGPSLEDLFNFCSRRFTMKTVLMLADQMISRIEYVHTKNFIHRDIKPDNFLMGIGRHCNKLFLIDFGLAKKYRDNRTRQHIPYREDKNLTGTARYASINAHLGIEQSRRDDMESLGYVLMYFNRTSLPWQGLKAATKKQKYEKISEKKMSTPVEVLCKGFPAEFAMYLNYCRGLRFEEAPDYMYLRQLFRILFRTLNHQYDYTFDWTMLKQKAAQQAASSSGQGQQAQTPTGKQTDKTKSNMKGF
# Sequence of UniProt O43525 (whole entry, looked up): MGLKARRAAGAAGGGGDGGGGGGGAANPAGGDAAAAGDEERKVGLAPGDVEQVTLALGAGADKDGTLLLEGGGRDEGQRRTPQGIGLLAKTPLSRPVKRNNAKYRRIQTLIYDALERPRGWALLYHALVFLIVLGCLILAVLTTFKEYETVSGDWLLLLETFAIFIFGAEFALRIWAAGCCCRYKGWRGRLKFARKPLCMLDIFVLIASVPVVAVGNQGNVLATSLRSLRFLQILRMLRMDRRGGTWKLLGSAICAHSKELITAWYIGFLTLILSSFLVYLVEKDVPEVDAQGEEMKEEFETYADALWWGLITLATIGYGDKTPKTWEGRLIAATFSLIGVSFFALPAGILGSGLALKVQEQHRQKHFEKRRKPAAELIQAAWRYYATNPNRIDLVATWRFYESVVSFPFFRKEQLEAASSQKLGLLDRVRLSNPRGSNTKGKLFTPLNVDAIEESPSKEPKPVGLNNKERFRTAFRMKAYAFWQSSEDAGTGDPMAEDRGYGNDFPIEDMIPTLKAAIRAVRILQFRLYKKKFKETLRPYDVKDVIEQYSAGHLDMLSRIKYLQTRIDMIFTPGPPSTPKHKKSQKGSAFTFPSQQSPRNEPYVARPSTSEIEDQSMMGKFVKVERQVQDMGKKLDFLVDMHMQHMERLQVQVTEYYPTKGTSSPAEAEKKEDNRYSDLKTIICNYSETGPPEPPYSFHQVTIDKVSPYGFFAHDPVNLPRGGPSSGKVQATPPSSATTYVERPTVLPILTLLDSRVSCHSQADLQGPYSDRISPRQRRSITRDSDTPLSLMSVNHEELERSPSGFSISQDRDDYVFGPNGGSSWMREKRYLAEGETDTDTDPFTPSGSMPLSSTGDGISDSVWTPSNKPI
# Sequence of UniProt Q9UKT9 (whole entry, looked up): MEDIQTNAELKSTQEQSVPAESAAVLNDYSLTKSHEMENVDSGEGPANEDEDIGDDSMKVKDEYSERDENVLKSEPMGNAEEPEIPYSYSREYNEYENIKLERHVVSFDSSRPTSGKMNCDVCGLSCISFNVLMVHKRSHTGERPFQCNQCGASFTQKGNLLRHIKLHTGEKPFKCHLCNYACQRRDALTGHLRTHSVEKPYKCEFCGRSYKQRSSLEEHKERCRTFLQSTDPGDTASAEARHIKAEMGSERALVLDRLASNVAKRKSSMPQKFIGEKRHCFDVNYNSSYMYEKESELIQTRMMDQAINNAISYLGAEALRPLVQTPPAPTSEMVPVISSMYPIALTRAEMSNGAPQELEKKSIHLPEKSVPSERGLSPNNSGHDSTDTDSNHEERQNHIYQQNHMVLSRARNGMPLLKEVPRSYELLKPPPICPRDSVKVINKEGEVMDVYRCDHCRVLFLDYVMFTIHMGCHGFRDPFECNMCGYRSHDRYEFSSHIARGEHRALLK
target,test,test system,setting,how to read,quantity,result,Compound
"CRBN/Zinc finger protein Aiolos (Homo sapiens, UniProt Q96SW2+Q9UKT9)","degrader, TMT quantitative proteomics",Mino,"200 nM, 4 h",,degradation,> 60%,O=C1CCC(N2C(=O)c3cccc(NCC(=O)N4CCN(c5ccc(Nc6nccc(Oc7ccccc7)n6)cc5)CC4)c3C2=O)C(=O)N1 (centres unmarked)
HIV-1 TAR RNA,,,25 °C,,binding free energy ΔG°,-36 ± 1.9 kJ/mol,CC(=O)NCCN(CC(=O)NCCN(CC(=O)NCCN(CC(=O)NCCC(N)=O)C(=O)[C@@H](N)CCCCN)C(=O)[C@@H](N)Cc1ccccc1)C(=O)[C@@H](N)Cc1ccccc1
"WW domain-containing oxidoreductase, WW1 domain (WWOX, Homo sapiens, UniProt Q9NZC7)","binding, isothermal titration calorimetry",,,baseline: isolated WW1 minus tandem WW1-WW2,ΔH difference,-11 kcal/mol,CC(C)C[C@H](NC(=O)[C@@H](NC(=O)[C@@H](NC(=O)CN)[C@@H](C)O)C(C)C)C(=O)N1CCC[C@H]1C(=O)N1CCC[C@H]1C(=O)N1CCC[C@H]1C(=O)N1CCC[C@H]1C(=O)N[C@@H](Cc1ccc(O)cc1)C(=O)N[C@@H](CCCNC(=N)N)C(=O)N[C@@H](Cc1c[nH]cn1)C(=O)N[C@@H](CCCNC(=N)N)C(=O)N[C@@H](CC(N)=O)C(=O)O
"CD38 (Homo sapiens, UniProt P28907)","cyclase activity, fluorometric",,"50 µM, added: NGD+ substrate",baseline: untreated,remaining activity,57 ± 4%,CC1=CC(C)(C)N=C(Nc2nc(-c3ccccc3)c3ccccc3n2)N1
HIV-1 TAR RNA,,,extrapolated to 1 M KCl,,non-electrostatic ΔG°,-32.8 ± 0.6 kJ/mol,CC(=O)NCCN(CCC(=O)NCCN(CCC(=O)NCCN(CCC(=O)NCCC(N)=O)C(=O)[C@@H](N)CCCNC(=N)N)C(=O)[C@@H](N)Cc1ccccc1)C(=O)[C@@H](N)Cc1ccccc1
"Cereblon/Casein kinase I alpha (CSNK1A1/CRBN, Homo sapiens, UniProt P48729+Q96SW2)","protein level, degrader, luciferase",MOLT-4,,,Dmax,0%,O=C1CC[C@H](N2Cc3cc(-c4cnn5ccc(Nc6ccc7c(c6)OCO7)nc45)ccc3C2=O)C(=O)N1
"ACTA1 (Oryctolagus cuniculus, UniProt P68135)","binding, SPR",,pH 7,,koff,0.0415 s⁻¹,CC(C)[C@H](NC(=O)[C@H](CCCCN)NC(=O)[C@H](C)NC(=O)[C@H](CC(N)=O)NC(=O)CNC(=O)[C@H](CCCNC(=N)N)NC(=O)[C@@H](NC(=O)[C@H](CCCCN)NC(=O)[C@@H](N)CO)[C@@H](C)O)C(=O)N[C@H](C(=O)NCC(=O)N[C@@H](CCCNC(=N)N)C(=O)N[C@@H](Cc1c[nH]c2ccccc12)C(=O)N[C@@H](CCCCN)C(=O)O)[C@@H](C)O
"NPSR1 (Homo sapiens, UniProt Q6W5P4, N107I)","calcium mobilization, agonist",CHO-Galpha16,unit not given,baseline: maximal assay window,maximal response,1,N=C(N)NCCC[C@H](NC(=O)[C@H](Cc1ccccc1)NC(=O)[C@@H](N)CO)C(=O)N[C@@H](CC(N)=O)C(N)=O
"Voltage-gated potassium channel, KQT; KCNQ2(Kv7.2)/KCNQ3(Kv7.3) (KCNQ3/KCNQ2, Homo sapiens, UniProt O43525+O43526)",two-electrode voltage clamp,Xenopus oocytes,10 µM,,maximal conductance,decreased,CCCCCCCC/C=C\CCCCCCCC(=O)N[C@@H](CO)C(=O)O
"Kcnk2 (Rattus norvegicus, UniProt Q920B6)","ion current, blocker, inside-out patch clamp",Xenopus oocytes,"1 µM, added: pH jump 8 to 5",baseline: control current,remaining current,~50%,CCCCCC[N+](CCCCCC)(CCCCCC)CCCCCC
"mraY (Aquifex aeolicus, UniProt O66465, Q305A)",ITC,,Q305A mutant,,ΔS,0.1 ± 1 cal/mol/K,CC(C)CC(NC(=O)C(NC(=O)NC(C(=O)O)C(C)C)C1CCNC(=N)N1)C(=O)NCCCNC(C(=O)O)C(OC1OC(CN)C(O)C1O)C1OC(n2ccc(=O)[nH]c2=O)C(O)C1O (centres unmarked)

# Repeated from above:
target,test,test system,setting,how to read,quantity,result,Compound
HIV-1 TAR RNA,,,extrapolated to 1 M KCl,,non-electrostatic ΔG°,-32.8 ± 0.6 kJ/mol,CC(=O)NCCN(CCC(=O)NCCN(CCC(=O)NCCN(CCC(=O)NCCC(N)=O)C(=O)[C@@H](N)CCCNC(=N)N)C(=O)[C@@H](N)Cc1ccccc1)C(=O)[C@@H](N)Cc1ccccc1
